# Measured values of several laboratories.
# Parts stem from different laboratories: compare values within a part only. Several values in a cell are separate wells, animals, samples, runs or records.

# Set 1 — species: human; sample: microsomes or S9; tested at: 2 µM; time: 0.5 h
SMILES,remaining compound [%]
Cc1nc(NC(=O)CCCCF)c(N)cc1Br,> 99.9
COc1ccc(C2=C(c3ccc(F)cc3F)c3ccc(OCCCN4CCN(S(C)(=O)=O)CC4)cc3C2=O)cn1,95
O=S1(=O)CCN2N=C(c3ccccc3)C(c3ccccc3)=NC2=N1,95.5
CC(C)(O)CC[C@@H](O)[C@](C)(O)C1CC[C@@]2(O)C3=CC(=O)C4C[C@@H](O)[C@@H](O)C[C@]4(C)C3CC[C@]12C (some centres unmarked),76.2
CC(=O)Nc1nc(-c2cnc3ccc(Cl)cn23)c(C)s1,1.1
c1ccc(/N=c2/nc(N3CCN(C(c4ccccc4)c4ccccc4)CC3)nc(Nc3ccccc3)[nH]2)cc1,> 99
COc1ccccc1NC(=O)NC1Cc2ccccc2C1,45
COc1cc(C)c2c(c1C=O)Oc1c(c(C)c(O)c3c1C(O)OC3=O)OC2=O (centres unmarked),> 99
Cc1nc(Oc2ccccc2)c(N)c(N2CCC(C)CC2)n1,0.803
O=C(NCCNC1=NS(=O)(=O)c2ccccc21)c1cccc(Br)c1,92.7
Cc1cc2c(cc1C)OC(c1nc(N(C)C)no1)C2 (centres unmarked),10.8
c1ccc2c(c1)oc1c(-c3cn(C[C@H]4CCCN4)nn3)cccc12,> 100
Cc1ccc(-c2nnc(C(C)N3CCc4sccc4C3)o2)cc1 (centres unmarked),4.39
Cc1cc(Cl)ccc1NS(=O)(=O)c1cc(-c2ccc(=O)n(-c3c(C)noc3C)n2)ccc1C,2.9
COc1ccc(OCC(=O)N(Cc2ccc(Br)o2)C2CCS(=O)(=O)C2)cc1 (centres unmarked),> 100
CCOC(C)c1nc(Cn2nc3ccccn3c2=O)cs1 (centres unmarked),91.7
COc1cc2ccccc2cc1C(=O)N(CCN(C)C)c1nc2c(F)cccc2s1,56.3

# Set 2 — read-out: enzyme activity; mode: inhibitor; tested at: 77 µM; baseline: untreated
# Target: DNA polymerase theta, ATPase domain (POLQ, Homo sapiens, UniProt O75417)
# Chain of UniProt O75417 (whole entry, unmodified, looked up): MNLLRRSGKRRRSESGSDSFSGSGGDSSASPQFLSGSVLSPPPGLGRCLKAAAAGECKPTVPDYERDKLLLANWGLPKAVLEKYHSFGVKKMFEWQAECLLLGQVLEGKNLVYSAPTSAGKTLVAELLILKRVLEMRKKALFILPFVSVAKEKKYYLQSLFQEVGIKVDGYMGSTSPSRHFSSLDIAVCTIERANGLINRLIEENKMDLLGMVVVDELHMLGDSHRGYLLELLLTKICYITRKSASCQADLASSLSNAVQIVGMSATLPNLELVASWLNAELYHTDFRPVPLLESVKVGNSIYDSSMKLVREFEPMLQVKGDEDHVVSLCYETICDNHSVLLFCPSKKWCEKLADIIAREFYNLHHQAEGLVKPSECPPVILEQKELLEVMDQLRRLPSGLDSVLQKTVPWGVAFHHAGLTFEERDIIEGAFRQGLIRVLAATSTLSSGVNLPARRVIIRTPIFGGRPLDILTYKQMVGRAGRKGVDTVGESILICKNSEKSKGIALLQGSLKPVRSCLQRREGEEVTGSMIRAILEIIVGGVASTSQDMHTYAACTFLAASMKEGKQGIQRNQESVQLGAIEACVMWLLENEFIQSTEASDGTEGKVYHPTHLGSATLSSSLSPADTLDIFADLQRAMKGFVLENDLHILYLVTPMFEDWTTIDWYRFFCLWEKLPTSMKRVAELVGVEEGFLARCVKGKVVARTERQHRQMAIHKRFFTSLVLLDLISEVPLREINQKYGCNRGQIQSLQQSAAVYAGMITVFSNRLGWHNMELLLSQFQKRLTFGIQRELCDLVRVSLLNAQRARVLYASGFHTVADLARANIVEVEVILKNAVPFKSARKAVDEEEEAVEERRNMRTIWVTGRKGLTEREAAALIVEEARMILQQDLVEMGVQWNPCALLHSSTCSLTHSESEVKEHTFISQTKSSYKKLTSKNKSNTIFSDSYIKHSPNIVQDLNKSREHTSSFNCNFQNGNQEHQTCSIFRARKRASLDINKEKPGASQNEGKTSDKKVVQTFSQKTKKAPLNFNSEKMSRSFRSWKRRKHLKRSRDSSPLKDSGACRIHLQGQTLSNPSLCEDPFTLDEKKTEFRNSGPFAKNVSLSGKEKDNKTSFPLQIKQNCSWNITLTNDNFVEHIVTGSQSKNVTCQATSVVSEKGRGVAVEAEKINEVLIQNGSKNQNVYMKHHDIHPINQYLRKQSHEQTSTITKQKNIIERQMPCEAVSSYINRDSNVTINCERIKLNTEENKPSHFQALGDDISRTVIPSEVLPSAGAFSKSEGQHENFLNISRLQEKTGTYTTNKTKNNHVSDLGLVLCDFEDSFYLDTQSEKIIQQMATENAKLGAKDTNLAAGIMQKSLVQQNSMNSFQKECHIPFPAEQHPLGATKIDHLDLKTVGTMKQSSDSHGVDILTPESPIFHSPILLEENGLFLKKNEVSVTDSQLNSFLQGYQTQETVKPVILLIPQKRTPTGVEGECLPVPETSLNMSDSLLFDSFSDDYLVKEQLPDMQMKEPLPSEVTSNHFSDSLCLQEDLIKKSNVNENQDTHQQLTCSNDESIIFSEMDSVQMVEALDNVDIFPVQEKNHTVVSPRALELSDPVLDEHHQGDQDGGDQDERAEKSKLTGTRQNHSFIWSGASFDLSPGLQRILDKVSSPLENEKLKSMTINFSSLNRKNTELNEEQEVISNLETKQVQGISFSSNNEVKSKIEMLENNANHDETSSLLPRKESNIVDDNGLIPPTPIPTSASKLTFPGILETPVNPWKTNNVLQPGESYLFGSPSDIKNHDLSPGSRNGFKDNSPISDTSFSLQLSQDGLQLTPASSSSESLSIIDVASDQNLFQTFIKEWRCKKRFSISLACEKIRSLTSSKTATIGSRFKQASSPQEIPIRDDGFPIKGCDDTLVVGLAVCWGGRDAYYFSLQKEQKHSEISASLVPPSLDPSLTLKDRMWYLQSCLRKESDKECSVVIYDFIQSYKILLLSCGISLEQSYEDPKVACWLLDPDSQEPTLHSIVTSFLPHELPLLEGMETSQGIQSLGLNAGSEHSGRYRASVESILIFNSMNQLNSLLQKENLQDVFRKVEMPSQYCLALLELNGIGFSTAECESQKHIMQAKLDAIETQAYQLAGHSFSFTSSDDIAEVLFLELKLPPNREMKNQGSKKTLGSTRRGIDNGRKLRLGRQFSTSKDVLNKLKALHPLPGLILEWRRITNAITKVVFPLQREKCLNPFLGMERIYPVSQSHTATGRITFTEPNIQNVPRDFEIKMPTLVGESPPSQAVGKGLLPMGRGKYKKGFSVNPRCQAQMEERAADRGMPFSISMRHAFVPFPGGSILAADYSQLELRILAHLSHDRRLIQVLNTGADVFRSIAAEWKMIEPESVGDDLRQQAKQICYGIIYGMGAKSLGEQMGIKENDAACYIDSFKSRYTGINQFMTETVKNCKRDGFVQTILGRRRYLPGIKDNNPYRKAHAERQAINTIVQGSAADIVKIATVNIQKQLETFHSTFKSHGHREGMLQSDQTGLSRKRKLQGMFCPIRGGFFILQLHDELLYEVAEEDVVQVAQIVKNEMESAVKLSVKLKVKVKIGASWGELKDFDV
SMILES,remaining activity
N=C(N)NCC1COC2(CCCCC2)O1 (centres unmarked),103%
CCOc1ccn(-c2ccc(F)cc2)c(=O)c1C(=O)Nc1ccc(Oc2ccnc(N)c2Cl)c(F)c1,99.5%
CC(C)NNC(=O)c1ccncc1,92.8% and 109%
OCCN1CCN(CC/C=C2/c3ccccc3Sc3ccc(C(F)(F)F)cc32)CC1,105%
N=C(N)NCCCCN,101%
C=CCN1CCc2c(cc(O)c(O)c2Cl)C(c2ccccc2)C1 (centres unmarked),94.4%
CC(=O)c1ccc(N2CCOCC2)cc1O,104%
N[C@@H](Cc1c[nH]c2ccc(O)cc12)C(=O)O,93.8%
c1cc(-c2cnn3cc(-c4ccc(N5CCNCC5)cc4)cnc23)c2cccnc2c1,94.3%

# Set 3 — read-out: radioligand binding; method: radioligand displacement; tested at: 10 µM
# Target: Translocator protein (Tspo, Rattus norvegicus, UniProt P16257)
# Chain of UniProt P16257 (whole entry, looked up): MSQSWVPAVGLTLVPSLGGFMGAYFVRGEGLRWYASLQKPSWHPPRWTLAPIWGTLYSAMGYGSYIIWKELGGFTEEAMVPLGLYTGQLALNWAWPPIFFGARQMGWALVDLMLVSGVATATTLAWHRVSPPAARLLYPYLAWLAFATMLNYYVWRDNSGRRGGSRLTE
Structure (SMILES),inhibition [%]
COCCOc1nc(-c2ccc(Cl)nc2)nc2c1CN(C(=O)c1ncn3ccccc13)CC2,24.9
CNC(=O)c1ccc(Nc2ncc(C(F)(F)F)c(NCc3nccnc3N(C)S(C)(=O)=O)n2)cc1,31.4
CS(=O)(=O)NCC[C@H](NC(=O)c1cncc2c1cnn2-c1ccc(F)cc1)c1ccnc(S(C)(=O)=O)c1,-5.04
Nc1cnc(N2CCc3cc(S(=O)(=O)Nc4c(F)cc(Cl)cc4F)cc(N4CCCC4=O)c32)nc1,-2.65
C[C@H](c1ccc(F)cc1)N(Cc1ccc(Cl)c(C(=O)O)c1)C(=O)c1cnc2ccccc2c1,-9.88
CNC(=N)NCCC[C@H](NC(=O)[C@H](CC(C)C)NC(=O)NNC(=O)[C@H](Cc1ccccc1)NC(=O)[C@H](CO)NC(=O)[C@H](CC(N)=O)NC(=O)[C@@H](Cc1ccncc1)NC(=O)[C@H](N)Cc1ccc(O)cc1)C(=O)N[C@@H](Cc1ccccc1)C(N)=O,31.5
C[C@@]1(Cc2ccc(C#N)cc2)C(=O)N(c2cc(Cl)cc(Cl)c2)c2ncc(C(=O)NC3(c4nc(C5CCC5)no4)CC3)n21,-15.2
CN(C)C(=O)c1sc2nc(N3CCC(S(C)(=O)=O)CC3)cc(C(F)(F)F)c2c1N,27.9
Cc1cc2c(-c3ccco3)cnc(N[C@H]3CCN(C)C[C@@H]3C(=O)NC3CCCCC3)c2[nH]c1=O,-8.18
CS(=O)(=O)N1CCCC(NC(=O)[C@H](CCC2CCCCC2)NC(=O)c2ccc(CNC(=O)c3cnc4ccccn34)cc2)C1 (some centres unmarked),13.2
CN1CCN(c2ccnc(NCCc3ccccc3)n2)CC1,-0.34
CC[C@H](CC(=O)O)n1c(=O)c2ncccc2n(Cc2cn(C)c3cc(C)cc(C)c23)c1=O,12.2
CC(=O)Nc1nc(CN2CCC[C@H](Cc3cc(C)nc(C)c3)C2)cs1,11.2
COCc1nc2cnc3cc(-c4c(C)noc4C)c(OC[C@H]4CCNC4)cc3c2n1[C@H](C)c1ccccc1,7.75

# Set 4 — read-out: enzyme activity; mode: inhibitor; tested at: 0.5 µM; baseline: control
# Target: Casein kinase I isoform gamma-1 (CSNK1G1, Homo sapiens, UniProt Q9HCP0)
# Chain of UniProt Q9HCP0 (whole entry, looked up): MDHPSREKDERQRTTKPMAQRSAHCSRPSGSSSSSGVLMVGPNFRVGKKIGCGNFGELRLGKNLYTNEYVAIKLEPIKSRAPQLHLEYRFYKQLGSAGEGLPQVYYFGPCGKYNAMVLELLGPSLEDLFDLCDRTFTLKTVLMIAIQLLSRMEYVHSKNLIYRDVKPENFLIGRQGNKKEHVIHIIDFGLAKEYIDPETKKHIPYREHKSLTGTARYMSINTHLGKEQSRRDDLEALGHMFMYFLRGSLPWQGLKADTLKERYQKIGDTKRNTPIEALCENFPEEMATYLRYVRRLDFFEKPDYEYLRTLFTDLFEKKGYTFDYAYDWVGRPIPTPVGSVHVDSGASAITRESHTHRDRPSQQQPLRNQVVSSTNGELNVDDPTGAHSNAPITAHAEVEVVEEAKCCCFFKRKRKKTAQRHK
Compound,remaining activity [%]
COc1ccc(-c2cnc3c(-c4ccsc4)cnn3c2)cc1,90.3
C[S+]([O-])c1ccc(-c2nc(-c3ccncc3)c(-c3ccc(F)cc3)[nH]2)cc1 (centres unmarked),95.7
Nc1[nH]nc2nnc(-c3c(-c4ccccc4)nn4ccccc34)cc12,109
CC(=O)O/N=C1/C(c2c(O)[nH]c3cc(Br)ccc23)=Nc2ccccc21,93.9
CC(C)[C@H](CO)Nc1nc(Nc2cccc(Cl)c2)c2ncn(C(C)C)c2n1,28
Cn1cnc2cc3c(Nc4cccc(Br)c4)ncnc3cc21,104
O=C(Nc1ccc(Cl)cc1)c1ccccc1NCc1ccncc1,110
O=c1cc(N2CCOCC2)oc2c1ccc1ccccc12,101
COc1cc2ncnc(N3CCN(C(=O)Nc4ccc(Oc5ccccc5)cc4)CC3)c2cc1OC,81.6
CN(C)CCCn1cc(C2=C(c3c[nH]c4ccccc34)C(=O)NC2=O)c2ccccc21,99.1
CS(=O)(=O)CCNCc1ccc(-c2ccc3ncnc(Nc4ccc(OCc5cccc(F)c5)c(Cl)c4)c3c2)o1,105
O=C1NC(=O)/C(=C/c2ccc3nccnc3c2)S1,101
Cn1cc(/C=C2\C(=O)Nc3ccc(S(N)(=O)=O)cc32)c2ccccc21,88.3
CC(C)c1nn(-c2c(Cl)cccc2Cl)c2nc(Cc3ccc(OCCO)cc3)[nH]c(=O)c12,101
COc1ccc(Cl)cc1NC(=O)Nc1cc(C)nc2ccccc12,97.9
Cc1nc(Nc2ncc(C(=O)Nc3c(C)cccc3Cl)s2)cc(N2CCN(CCO)CC2)n1,96.6
CCN1/C(=C/C(C)=O)Sc2ccc(OC)cc21,87.8
CCOc1cc2ncnc(Nc3cccc(Br)c3)c2cc1OCC,107
Cc1ccc(NC(=O)c2ccc(CN3CCN(C)CC3)cc2)cc1Nc1nccc(-c2cccnc2)n1,101
COc1cc2ncnc(Nc3ccc(OCc4ccccc4)cc3)c2cc1OC,90.6
CCC(=O)Nc1ccc2ncnc(Nc3cccc(Br)c3)c2c1,98.6
COc1cc2ncc(-c3ccccc3)nc2cc1OC,90.1

# Some of these lines once more (set 1):
SMILES,remaining compound [%]
COc1ccccc1NC(=O)NC1Cc2ccccc2C1,45
COc1cc(C)c2c(c1C=O)Oc1c(c(C)c(O)c3c1C(O)OC3=O)OC2=O (centres unmarked),> 99
Cc1nc(Oc2ccccc2)c(N)c(N2CCC(C)CC2)n1,0.803
O=C(NCCNC1=NS(=O)(=O)c2ccccc21)c1cccc(Br)c1,92.7
Cc1cc2c(cc1C)OC(c1nc(N(C)C)no1)C2 (centres unmarked),10.8
c1ccc2c(c1)oc1c(-c3cn(C[C@H]4CCCN4)nn3)cccc12,> 100
Cc1ccc(-c2nnc(C(C)N3CCc4sccc4C3)o2)cc1 (centres unmarked),4.39
Cc1cc(Cl)ccc1NS(=O)(=O)c1cc(-c2ccc(=O)n(-c3c(C)noc3C)n2)ccc1C,2.9
COc1ccc(OCC(=O)N(Cc2ccc(Br)o2)C2CCS(=O)(=O)C2)cc1 (centres unmarked),> 100
CCOC(C)c1nc(Cn2nc3ccccn3c2=O)cs1 (centres unmarked),91.7
